Assay results gathered from unrelated publications.
Protocols differ between the studies behind these lines. ± gives the spread as reported.
Gonadotropin-releasing hormone receptor: Gonadotropin-releasing hormone receptor (Rattus norvegicus, UniProt P30969)
UniProt P30969, sequence (whole entry, looked up): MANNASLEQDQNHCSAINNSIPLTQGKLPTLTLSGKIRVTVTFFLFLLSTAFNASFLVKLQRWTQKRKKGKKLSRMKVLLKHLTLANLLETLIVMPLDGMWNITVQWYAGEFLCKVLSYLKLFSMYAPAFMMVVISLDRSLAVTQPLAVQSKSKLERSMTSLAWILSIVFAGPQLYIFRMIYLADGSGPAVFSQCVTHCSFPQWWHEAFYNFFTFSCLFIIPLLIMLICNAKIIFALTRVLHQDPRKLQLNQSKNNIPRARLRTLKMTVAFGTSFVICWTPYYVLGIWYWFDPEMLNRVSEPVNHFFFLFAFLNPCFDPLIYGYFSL
Melanocortin receptor 3: Melanocortin receptor 3 (Mus musculus, UniProt P33033)
UniProt P33033, sequence (whole entry, looked up): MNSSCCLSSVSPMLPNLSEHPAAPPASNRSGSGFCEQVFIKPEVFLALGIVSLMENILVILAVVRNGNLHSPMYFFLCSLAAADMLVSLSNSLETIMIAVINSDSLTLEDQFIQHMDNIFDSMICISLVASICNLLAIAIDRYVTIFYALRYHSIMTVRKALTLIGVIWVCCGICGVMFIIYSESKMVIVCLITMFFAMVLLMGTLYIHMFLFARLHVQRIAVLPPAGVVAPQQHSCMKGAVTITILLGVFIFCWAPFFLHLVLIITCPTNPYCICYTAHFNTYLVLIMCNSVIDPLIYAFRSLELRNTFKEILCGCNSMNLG
Melanocortin receptor 5: Melanocortin receptor 5 (Mus musculus, UniProt P41149)
UniProt P41149, sequence (whole entry, looked up): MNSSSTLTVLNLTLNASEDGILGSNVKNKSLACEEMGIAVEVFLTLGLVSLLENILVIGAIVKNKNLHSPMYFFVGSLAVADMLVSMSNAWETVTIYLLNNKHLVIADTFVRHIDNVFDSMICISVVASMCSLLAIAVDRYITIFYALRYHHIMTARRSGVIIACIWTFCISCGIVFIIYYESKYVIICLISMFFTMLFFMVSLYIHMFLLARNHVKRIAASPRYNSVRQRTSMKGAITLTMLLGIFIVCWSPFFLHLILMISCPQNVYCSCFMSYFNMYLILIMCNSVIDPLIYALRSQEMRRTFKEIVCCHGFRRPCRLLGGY
lasR: Transcriptional activator protein LasR (lasR, Pseudomonas aeruginosa, UniProt P25084)
ATP5F1B/ATP5F1A/ATP synthase F(1) complex subunit gamma, mitochondrial: ATP5F1B/ATP5F1A/ATP synthase F(1) complex subunit gamma, mitochondrial (Homo sapiens, UniProt P06576+P25705+P36542)
UniProt P33535, sequence (whole entry, looked up): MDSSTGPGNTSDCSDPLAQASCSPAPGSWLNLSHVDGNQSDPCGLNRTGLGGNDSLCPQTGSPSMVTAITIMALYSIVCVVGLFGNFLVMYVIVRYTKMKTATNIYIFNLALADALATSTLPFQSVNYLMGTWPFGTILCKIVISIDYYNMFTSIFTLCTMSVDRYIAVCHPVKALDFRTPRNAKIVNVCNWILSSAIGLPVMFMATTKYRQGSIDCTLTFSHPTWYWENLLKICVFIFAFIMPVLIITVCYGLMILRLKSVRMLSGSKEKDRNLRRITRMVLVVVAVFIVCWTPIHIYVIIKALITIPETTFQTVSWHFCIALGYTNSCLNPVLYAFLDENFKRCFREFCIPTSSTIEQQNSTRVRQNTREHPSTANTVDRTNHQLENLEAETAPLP
UniProt P25705, sequence (whole entry, looked up): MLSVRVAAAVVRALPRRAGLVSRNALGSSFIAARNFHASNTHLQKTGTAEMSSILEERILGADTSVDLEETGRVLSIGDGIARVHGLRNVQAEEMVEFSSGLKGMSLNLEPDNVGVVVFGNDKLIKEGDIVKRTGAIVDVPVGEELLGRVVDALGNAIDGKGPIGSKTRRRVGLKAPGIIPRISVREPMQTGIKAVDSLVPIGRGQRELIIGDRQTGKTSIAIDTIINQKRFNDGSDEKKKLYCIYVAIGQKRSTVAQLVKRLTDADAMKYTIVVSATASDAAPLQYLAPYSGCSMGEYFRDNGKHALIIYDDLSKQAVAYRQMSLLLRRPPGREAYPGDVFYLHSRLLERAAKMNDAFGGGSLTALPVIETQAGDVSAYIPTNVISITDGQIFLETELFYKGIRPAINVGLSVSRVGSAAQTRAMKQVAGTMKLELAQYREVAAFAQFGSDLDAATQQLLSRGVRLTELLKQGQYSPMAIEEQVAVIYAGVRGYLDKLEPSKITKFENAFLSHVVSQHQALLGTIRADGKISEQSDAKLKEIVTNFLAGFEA
UniProt P06576, sequence (whole entry, looked up): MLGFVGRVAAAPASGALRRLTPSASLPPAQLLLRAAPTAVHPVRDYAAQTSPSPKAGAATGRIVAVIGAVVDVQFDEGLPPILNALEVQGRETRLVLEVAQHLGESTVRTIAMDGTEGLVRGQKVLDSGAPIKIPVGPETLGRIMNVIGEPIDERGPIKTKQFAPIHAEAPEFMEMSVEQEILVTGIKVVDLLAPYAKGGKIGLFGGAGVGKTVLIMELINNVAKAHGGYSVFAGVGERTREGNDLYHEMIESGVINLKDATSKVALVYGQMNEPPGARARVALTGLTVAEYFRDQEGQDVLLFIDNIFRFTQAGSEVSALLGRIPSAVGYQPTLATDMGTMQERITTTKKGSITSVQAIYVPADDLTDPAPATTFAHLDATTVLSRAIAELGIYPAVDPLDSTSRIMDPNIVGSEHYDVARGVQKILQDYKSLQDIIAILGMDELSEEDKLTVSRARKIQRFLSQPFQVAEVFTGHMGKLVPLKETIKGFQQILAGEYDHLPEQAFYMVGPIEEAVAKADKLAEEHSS
UniProt P36542, sequence (whole entry, looked up): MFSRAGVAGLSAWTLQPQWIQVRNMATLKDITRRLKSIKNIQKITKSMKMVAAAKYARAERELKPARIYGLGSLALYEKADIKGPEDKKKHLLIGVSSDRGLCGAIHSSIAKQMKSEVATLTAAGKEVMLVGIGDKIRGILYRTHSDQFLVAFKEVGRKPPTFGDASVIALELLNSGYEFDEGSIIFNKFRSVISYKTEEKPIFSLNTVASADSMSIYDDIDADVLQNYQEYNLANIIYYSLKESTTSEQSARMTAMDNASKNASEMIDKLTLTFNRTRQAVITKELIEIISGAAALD
UniProt P50391, sequence (whole entry, looked up): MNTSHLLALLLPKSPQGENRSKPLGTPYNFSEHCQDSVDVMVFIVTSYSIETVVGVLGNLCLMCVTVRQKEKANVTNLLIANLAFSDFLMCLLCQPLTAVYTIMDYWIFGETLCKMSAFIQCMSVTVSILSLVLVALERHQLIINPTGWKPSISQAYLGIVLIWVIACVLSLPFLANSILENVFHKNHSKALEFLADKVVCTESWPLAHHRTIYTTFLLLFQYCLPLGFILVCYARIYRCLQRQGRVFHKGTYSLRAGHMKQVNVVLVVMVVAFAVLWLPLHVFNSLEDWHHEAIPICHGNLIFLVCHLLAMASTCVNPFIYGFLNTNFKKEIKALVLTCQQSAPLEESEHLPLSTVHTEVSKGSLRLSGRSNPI
UniProt P43219, sequence (whole entry, looked up): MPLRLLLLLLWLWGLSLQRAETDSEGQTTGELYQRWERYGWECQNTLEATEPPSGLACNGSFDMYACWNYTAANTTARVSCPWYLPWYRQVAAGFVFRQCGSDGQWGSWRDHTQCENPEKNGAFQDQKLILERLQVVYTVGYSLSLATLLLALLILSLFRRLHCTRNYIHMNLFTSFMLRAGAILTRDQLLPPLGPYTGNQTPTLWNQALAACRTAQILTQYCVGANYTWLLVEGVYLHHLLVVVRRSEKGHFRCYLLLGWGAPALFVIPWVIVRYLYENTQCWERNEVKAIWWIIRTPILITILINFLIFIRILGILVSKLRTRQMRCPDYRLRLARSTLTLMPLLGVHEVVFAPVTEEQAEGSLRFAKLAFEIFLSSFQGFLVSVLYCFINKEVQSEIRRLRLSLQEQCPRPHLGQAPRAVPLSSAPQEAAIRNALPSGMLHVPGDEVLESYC
UniProt P41595, sequence (whole entry, looked up): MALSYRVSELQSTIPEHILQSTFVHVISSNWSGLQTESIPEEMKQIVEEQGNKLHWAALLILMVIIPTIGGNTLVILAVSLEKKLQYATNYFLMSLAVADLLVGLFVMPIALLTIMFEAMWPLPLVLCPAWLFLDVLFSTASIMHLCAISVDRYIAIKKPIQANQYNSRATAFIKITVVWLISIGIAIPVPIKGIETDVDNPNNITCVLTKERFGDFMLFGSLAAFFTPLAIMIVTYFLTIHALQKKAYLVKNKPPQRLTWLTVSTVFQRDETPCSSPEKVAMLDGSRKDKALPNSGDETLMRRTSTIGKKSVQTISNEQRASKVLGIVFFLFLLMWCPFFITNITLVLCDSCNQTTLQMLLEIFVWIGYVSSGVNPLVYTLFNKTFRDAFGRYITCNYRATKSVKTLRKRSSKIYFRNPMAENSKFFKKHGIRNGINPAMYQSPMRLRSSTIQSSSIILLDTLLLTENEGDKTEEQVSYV

SMILES = CCCCC/C=C\C/C=C\C/C=C\C/C=C\CCCC(=O)NC(CO)C(=O)O (stereo in doubt); target = Voltage-gated potassium channel, KQT; KCNQ2(Kv7.2)/KCNQ3(Kv7.3) (KCNQ3/KCNQ2, Homo sapiens, UniProt O43525+O43526); test = maximal conductance, activator, two-electrode voltage clamp; test system = Xenopus oocytes; EC50 = 3000 nM
SMILES = CCCCc1cc(Cc2ccccc2)cc2c1NCCC2NC(=O)C(N)Cc1c(C)cc(O)cc1C (stereo not drawn); target = Oprm1 (Rattus norvegicus, UniProt P33535); test = GTPγS binding, agonist, radiometric; conditions = cell membranes; EC50 = 17 nM
SMILES = CC1(C(=O)O)CCCC2(C)C1CCC1(C)c3cocc3CCC12 (stereo not drawn); target = Androgen receptor (Ar, Rattus norvegicus, UniProt P15207); EC50 = 27100 nM
SMILES = CC(C)C[C@H](NC(=O)[C@@H](CCCCN)NC(=O)[C@H](Cc1c[nH]cn1)NC(=O)[C@H](CO)NC(=O)[C@H](Cc1c[nH]c2ccccc12)NC(=O)[C@H](Cc1c[nH]cn1)NC(=O)[C@@H]1CCC(=O)N1)C(=O)N[C@@H](CCCNC(=N)N)C(=O)N1CCC[C@H]1C(=O)NCC(N)=O; target = Gonadotropin-releasing hormone receptor; test = inositol phosphate accumulation, agonist; test system = HEK293 expressing Gonadotropin-releasing hormone receptor; conditions = 60 min, 37 °C, with: 10 mM LiCl; EC50 = 12.5 ± 1.7 nM
SMILES = CC(=O)N[C@@H](CCCNC(=N)N)C(=O)N[C@@H](CCCNC(=N)N)C(=O)N[C@H](Cc1ccc(I)cc1)C(=O)N[C@H](C(N)=O)[C@@H](c1ccccc1)c1c[nH]c2ccccc12; target = Melanocortin receptor 3; test = cAMP, agonist, AlphaScreen; EC50 = 2400 nM
SMILES = Cc1cc(O)cc(C)c1CC(N)C(=O)NC1CCNc2c(Br)cc(Cc3ccccc3)cc21 (stereo not drawn); target = Oprm1 (Rattus norvegicus, UniProt P33535); test = GTPγS binding, agonist, radiometric; conditions = cell membranes; EC50 = 1.2 nM
SMILES = CCN(Cc1ccccc1)C(=O)CCc1nc(CN2CCN(C(=O)Cc3ccc(OC)c(OC)c3)CC2)no1; target = Scn10a (Rattus norvegicus, UniProt Q62968); test = inactivation midpoint shift, whole-cell patch clamp; test system = rat DRG neurons; EC50 = 33.1 ± 10.8 nM
SMILES = C[C@H](N)C(=O)N[C@@H](CCCNC(=N)N)C(=O)N[C@@H](Cc1ccc(O)cc1)C(=O)NCC(=O)N[C@@H](Cc1ccccc1)C(=O)N[C@@H](C)C(N)=O; target = Cholecystokinin-like receptor CKR-1 (Caenorhabditis elegans, UniProt P91487); test = ion current, agonist, two-electrode voltage clamp; test system = Caenorhabditis elegans, Xenopus laevis oocytes; conditions = pH 7.3, holding -80 mV; EC50 = 13.6 nM
SMILES = C#CCC[C@H](NC(=O)[C@H](Cc1c[nH]c2ccccc12)NC(=O)[C@H](CCCNC(=N)N)NC(=O)[C@@H](Cc1ccccc1)NC(=O)[C@H](Cc1c[nH]cn1)NC(=O)[C@H](CCN=[N+]=[N-])NC(=O)[C@H](CCCC)NC(C)=O)C(N)=O; target = Melanocortin receptor 5; test = reporter gene, agonist; EC50 = ~0.05 nM
SMILES = CC(=O)N[C@@H](Cc1ccc(O)cc1)C(=O)N[C@@H](CCCNC(=N)NC(=O)NCCCCN)C(=O)N[C@@H](CC(C)C)C(=O)N[C@@H](CCCNC(=N)N)C(=O)N[C@@H](Cc1ccc(O)cc1)C(N)=O; target = NPY4R (Homo sapiens, UniProt P50391); test = β-arrestin 1 recruitment, agonist; test system = HEK293T; EC50 = 1070 ± 520 nM
SMILES = CCCCCCCCCC(=O)CC(=O)NC1CCCCC1=O (stereo not drawn); target = lasR; test = reporter gene, agonist; test system = Escherichia coli, JLD271 with LasR plasmid; EC50 = 240 nM
SMILES = Cc1cc(O)c(I)c(C)c1C[C@H](N)C(=O)N[C@H](C)C(=O)N[C@@H](Cc1ccccc1)C(=O)N[C@@H](Cc1ccccc1)C(N)=O; target = Oprm1 (Mus musculus, UniProt P42866); test = agonist; EC50 = 17 ± 1 nM
SMILES = CS(=O)(=O)c1cccc(OCCCC(=O)NC2CC3CC3C2O)c1 (stereo not drawn); target = lasR (Pseudomonas aeruginosa, UniProt P25084, T75V); test = reporter gene, agonist; test system = Escherichia coli lasB-lux reporter; EC50 = > 100000 nM
SMILES = CCc1noc(CC)c1C(=O)O[C@H]1C(C)=C[C@]23C(=O)[C@@H](C=C(CO)[C@@H](O)[C@]12O)[C@H]1[C@@H](C[C@H]3C)C1(C)C; target = PRKCG (Homo sapiens, UniProt P05129); test = enzyme activity, activator; EC50 = 0.9 nM
SMILES = CC(=O)N1CCCC[C@H]1C(=O)NC(C)(C)C(=O)N1CCCC[C@H]1C(=O)NC(C)(C)C(=O)NC(C)(C)C(=O)N[C@@H](CC(C)C)C(=O)NCCC(=O)NCC(=O)NC(C)(C)C(=O)NC(C)(C)C(=O)N1CCCC[C@H]1C(=O)NC(C)(C)C(=O)NCC(=O)N[C@@H](CC(C)C)C(=O)NC(C)(C)C(=O)N[C@@H](CC(C)C)C[N+]1=C2CCCN2CCC1; target = ATP5F1B/ATP5F1A/ATP synthase F(1) complex subunit gamma, mitochondrial; test = ATP production, inhibitor; test system = permeabilized MCF7; EC50 = 1.2 ± 0.3 nM
SMILES = C[C@@H]1NC(=O)[C@H](CC(N)=O)N2C[C@H](Cc3c[nH]c4ccccc34)NC(=O)[C@H](CSCC2=O)NC(=O)[C@H](CCCNC(=N)N)NC(=O)[C@@H](Cc2ccccc2)NC(=O)[C@H](Cc2c[nH]cn2)NC(=O)[C@@H](NC(=O)[C@@H](N)Cc2ccc(O)cc2)CSSC[C@@H](C(=O)N[C@@H](Cc2ccc(O)cc2)C(N)=O)NC(=O)[C@H](Cc2ccccc2)NC1=O; target = Melanocortin receptor 3; test = reporter gene, agonist; EC50 = 255 nM
SMILES = CC(C)C[C@H](NC(=O)[C@@H](CCCNC(=N)N)NC(=O)[C@H](Cc1c[nH]cn1)NC(=O)[C@H](CO)NC(=O)[C@H](Cc1c[nH]c2ccccc12)NC(=O)[C@H](Cc1c[nH]cn1)NC(=O)[C@@H]1CCC(=O)N1)C(=O)N[C@@H](CCCNC(=N)N)C(=O)N1CCC[C@H]1C(=O)NCC(N)=O; target = Gonadotropin-releasing hormone receptor; test = inositol phosphate accumulation, agonist; test system = WPE-1-NB26-3 expressing Gonadotropin-releasing hormone receptor; conditions = 60 min, 37 °C, with: 10 mM LiCl; EC50 = 21.2 ± 6.9 nM
SMILES = CC(=O)N[C@@H](CCCNC(=N)N)C(=O)N[C@@H](CCCNC(=N)N)C(=O)N[C@@H](C(=O)N1Cc2ccccc2C[C@H]1C(N)=O)[C@H](c1ccccc1)c1c[nH]c2ccccc12; target = Melanocortin receptor 3; test = cAMP, agonist, AlphaScreen; EC50 = 2700 nM
SMILES = O=C(CCCCCCCCCN=C=S)CC(=O)N[C@H]1CCOC1=O; target = lasR; test = reporter gene, agonist; test system = Escherichia coli, JLD271 with LasR plasmid; EC50 = 17 nM
SMILES = C[C@@H]1NC(=O)[C@H](CC(N)=O)NC(=O)[C@H](Cc2c[nH]c3ccccc23)NC(=O)[C@H](CCCNC(=N)N)NC(=O)[C@@H](Cc2ccccc2)NC(=O)[C@H](Cc2c[nH]cn2)NC(=O)[C@@H](NC(=O)[C@@H](N)Cc2ccc(O)cc2)CCCn2nncc2-c2cccc(c2)-c2cnnn2CCC[C@@H](C(=O)N[C@@H](Cc2ccc(O)cc2)C(N)=O)NC(=O)[C@H](Cc2ccccc2)NC1=O; target = Melanocortin receptor 5; test = agonist; EC50 = 80 ± 26 nM
SMILES = CC[C@H](C)[C@H](NC(=O)[C@H](CO)NC(=O)[C@H](Cc1ccc(O)cc1)NC(=O)[C@H](CC(=O)O)NC(=O)[C@H](CO)NC(=O)[C@@H](NC(=O)[C@H](Cc1ccccc1)NC(=O)[C@@H](NC(=O)CNC(=O)[C@@H]1CCCN1C(=O)[C@H](C)NC(=O)[C@@H](N)Cc1ccc(O)cc1)[C@@H](C)O)[C@@H](C)CC)C(=O)N[C@@H](C)C(=O)N[C@@H](CCSC)C(=O)N[C@@H](CC(=O)O)C(=O)N[C@@H](CCCCN)C(=O)N[C@H](C(=O)N[C@@H](CCCNC(=N)N)C(=O)N[C@@H](CCC(N)=O)C(=O)N[C@@H](CCC(N)=O)C(=O)N[C@@H](CC(=O)O)C(=O)N[C@@H](Cc1ccccc1)C(=O)N[C@H](C(=O)N[C@@H](CC(N)=O)C(=O)N[C@@H](Cc1c[nH]c2ccccc12)C(=O)N[C@@H](CC(C)C)C(=O)N[C@@H](CC(C)C)C(=O)N[C@@H](C)C(=O)N[C@@H](CCC(N)=O)C(=O)N[C@@H](CCCNC(=N)N)C(=O)NCC(=O)N[C@@H](CCCCN)C(=O)N[C@@H](CCCCN)C(=O)N[C@@H](CO)C(=O)N[C@@H](CC(=O)O)C(=O)N[C@@H](Cc1c[nH]c2ccccc12)C(=O)N[C@@H](CCCCN)C(=O)N[C@@H](Cc1c[nH]cn1)C(=O)N[C@@H](CC(N)=O)C(=O)N[C@H](C(=O)N[C@H](C(=O)N[C@@H](CCC(N)=O)C(=O)O)[C@@H](C)O)[C@@H](C)CC)C(C)C)[C@@H](C)CC; target = Gastric inhibitory polypeptide receptor (Rattus norvegicus, UniProt P43219); test = cAMP, agonist; EC50 = 15 nM
SMILES = Cc1cc(O)cc(C)c1CC(N)C(=O)NC1CCNc2c(C(=O)NCc3ccccc3)cc(Cc3ccccc3)cc21 (stereo not drawn); target = Oprm1 (Rattus norvegicus, UniProt P33535); test = GTPγS binding, agonist, radiometric; conditions = cell membranes; EC50 = 3.4 nM
SMILES = CC(=O)N1CCCC[C@H]1C(=O)NC(C)(C)C(=O)N1CCCC[C@H]1C(=O)NC(C)(C)C(=O)NC(C)(C)C(=O)N[C@@H](CC(C)C)C(=O)N[C@H](C)CC(=O)NCC(=O)NC(C)(C)C(=O)NC(C)(C)C(=O)N1CCCC[C@H]1C(=O)NC(C)(C)C(=O)NCC(=O)N[C@@H](CC(C)C)C(=O)NC(C)(C)C(=O)N[C@@H](CC(C)C)C[N+]1=C2CCCN2CCC1; target = ATP5F1B/ATP5F1A/ATP synthase F(1) complex subunit gamma, mitochondrial; test = ATP production, inhibitor; test system = permeabilized MCF7; EC50 = 2.6 ± 0.1 nM
SMILES = CCCCCCCCCC(=O)CC(=O)Nc1ccccc1; target = lasR; test = reporter gene, agonist; test system = Escherichia coli, JLD271 with LasR plasmid; EC50 = 920 nM
SMILES = Cc1cc(C2=CCN(CC3OCCO3)CC2)cc([N+](=O)[O-])c1N; target = HTR2B (Homo sapiens, UniProt P41595); test = calcium signal, agonist; EC50 = 9550 nM
SMILES = O=C(CCCOc1cccc(Br)c1)N[C@H]1CCSC1=O; target = lasR; test = reporter gene, agonist; test system = PAO-JP2 pump active; EC50 = 4200 nM
SMILES = CCOC(=O)c1cc(Cc2ccccc2)cc2c1NCCC2NC(=O)C(N)Cc1c(C)cc(O)cc1C (stereo not drawn); target = Oprm1 (Rattus norvegicus, UniProt P33535); test = GTPγS binding, agonist, radiometric; conditions = cell membranes; EC50 = 4.9 nM
